Assay results pooled from the literature.
Lines come from different studies, so protocols differ. “And” joins repeats or separate records; there may be more than shown. ± marks the error that the study gave.
UniProt P54764, sequence (whole entry, looked up): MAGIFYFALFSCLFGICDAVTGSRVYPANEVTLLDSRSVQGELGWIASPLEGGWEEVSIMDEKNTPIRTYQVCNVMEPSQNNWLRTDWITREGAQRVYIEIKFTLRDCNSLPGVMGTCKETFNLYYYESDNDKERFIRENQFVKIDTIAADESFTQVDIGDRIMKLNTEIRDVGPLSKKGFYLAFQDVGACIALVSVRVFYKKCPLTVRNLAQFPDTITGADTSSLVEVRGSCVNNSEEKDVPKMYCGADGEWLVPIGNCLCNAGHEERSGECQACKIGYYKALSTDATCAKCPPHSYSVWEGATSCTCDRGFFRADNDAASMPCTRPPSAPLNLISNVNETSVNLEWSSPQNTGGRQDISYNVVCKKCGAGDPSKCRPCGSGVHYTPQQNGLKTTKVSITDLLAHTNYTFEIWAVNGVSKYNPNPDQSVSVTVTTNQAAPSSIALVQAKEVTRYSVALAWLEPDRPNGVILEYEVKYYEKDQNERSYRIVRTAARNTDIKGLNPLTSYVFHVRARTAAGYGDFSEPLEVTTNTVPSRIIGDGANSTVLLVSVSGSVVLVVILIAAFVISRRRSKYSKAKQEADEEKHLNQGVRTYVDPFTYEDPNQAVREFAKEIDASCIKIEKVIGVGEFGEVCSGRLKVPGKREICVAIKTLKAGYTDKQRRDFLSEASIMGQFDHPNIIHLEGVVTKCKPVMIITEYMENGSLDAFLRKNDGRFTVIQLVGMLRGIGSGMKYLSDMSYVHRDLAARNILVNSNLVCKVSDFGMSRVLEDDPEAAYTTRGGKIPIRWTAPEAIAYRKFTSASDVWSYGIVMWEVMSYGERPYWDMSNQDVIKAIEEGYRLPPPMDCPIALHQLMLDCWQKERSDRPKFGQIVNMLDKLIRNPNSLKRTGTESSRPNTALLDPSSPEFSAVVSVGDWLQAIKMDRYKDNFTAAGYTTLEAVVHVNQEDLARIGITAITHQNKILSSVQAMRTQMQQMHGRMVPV
UniProt P22411, sequence (whole entry, looked up): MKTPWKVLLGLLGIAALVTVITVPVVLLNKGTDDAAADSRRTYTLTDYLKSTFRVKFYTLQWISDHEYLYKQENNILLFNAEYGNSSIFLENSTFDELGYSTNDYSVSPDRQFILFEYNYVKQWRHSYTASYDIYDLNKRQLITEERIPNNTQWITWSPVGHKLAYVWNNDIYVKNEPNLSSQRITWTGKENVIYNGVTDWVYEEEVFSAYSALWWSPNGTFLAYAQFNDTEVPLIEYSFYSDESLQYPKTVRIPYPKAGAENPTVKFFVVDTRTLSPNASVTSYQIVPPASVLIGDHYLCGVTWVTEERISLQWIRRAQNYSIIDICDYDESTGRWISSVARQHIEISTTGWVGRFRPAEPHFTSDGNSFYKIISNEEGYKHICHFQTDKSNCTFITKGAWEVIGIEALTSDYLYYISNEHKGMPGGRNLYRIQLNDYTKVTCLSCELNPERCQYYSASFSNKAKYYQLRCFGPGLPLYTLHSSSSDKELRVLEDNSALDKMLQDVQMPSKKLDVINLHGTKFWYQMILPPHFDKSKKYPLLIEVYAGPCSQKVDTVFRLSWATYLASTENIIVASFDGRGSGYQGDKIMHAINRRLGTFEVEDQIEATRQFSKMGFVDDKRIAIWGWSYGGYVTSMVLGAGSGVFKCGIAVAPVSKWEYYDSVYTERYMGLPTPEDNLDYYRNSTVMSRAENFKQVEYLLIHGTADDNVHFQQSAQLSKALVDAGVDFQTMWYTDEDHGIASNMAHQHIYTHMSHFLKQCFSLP
UniProt P39051, sequence (whole entry, looked up): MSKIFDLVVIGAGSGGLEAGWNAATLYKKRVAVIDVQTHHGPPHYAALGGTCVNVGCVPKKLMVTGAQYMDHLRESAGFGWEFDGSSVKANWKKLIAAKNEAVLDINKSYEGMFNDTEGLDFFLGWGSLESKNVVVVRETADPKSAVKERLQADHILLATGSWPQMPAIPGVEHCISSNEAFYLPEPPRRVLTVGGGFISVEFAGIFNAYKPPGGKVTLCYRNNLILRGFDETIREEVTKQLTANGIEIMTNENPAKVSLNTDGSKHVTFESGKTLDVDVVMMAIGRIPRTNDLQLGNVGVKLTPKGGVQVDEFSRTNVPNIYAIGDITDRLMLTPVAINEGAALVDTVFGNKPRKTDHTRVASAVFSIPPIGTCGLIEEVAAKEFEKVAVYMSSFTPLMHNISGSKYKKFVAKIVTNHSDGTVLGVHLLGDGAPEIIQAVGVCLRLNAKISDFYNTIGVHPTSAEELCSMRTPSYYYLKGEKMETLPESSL
UniProt P21761, sequence (whole entry, looked up): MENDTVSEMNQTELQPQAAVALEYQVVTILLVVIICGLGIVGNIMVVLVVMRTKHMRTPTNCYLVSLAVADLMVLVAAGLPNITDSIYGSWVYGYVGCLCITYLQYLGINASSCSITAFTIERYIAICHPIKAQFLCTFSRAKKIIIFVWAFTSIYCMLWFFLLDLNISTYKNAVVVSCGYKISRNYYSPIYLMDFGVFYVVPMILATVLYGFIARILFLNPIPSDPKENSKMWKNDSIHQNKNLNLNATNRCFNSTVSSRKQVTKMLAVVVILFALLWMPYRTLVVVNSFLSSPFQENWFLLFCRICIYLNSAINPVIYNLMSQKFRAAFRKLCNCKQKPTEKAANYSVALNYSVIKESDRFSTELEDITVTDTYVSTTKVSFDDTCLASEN
UniProt Q8DPL8, sequence (whole entry, looked up): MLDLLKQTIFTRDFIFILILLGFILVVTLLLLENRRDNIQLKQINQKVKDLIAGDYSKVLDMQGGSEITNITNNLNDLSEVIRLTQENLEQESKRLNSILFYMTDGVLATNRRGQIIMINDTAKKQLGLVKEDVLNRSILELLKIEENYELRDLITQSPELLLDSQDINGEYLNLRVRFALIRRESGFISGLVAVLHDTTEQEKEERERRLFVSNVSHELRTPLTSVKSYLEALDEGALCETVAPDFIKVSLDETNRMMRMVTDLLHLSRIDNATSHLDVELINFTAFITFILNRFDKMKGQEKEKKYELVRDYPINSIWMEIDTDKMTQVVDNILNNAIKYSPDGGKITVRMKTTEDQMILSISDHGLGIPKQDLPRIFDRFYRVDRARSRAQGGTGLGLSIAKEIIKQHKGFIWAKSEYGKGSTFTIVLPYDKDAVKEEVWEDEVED
UniProt P25024, sequence (whole entry, looked up): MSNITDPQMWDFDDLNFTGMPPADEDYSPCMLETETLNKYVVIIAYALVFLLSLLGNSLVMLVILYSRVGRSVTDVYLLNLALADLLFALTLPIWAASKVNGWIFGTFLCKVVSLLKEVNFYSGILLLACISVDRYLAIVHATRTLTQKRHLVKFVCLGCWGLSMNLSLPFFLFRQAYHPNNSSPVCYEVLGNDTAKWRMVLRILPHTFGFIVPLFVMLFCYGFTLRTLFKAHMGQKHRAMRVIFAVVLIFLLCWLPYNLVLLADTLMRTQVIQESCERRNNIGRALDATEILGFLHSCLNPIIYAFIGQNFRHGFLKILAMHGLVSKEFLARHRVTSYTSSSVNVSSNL
UniProt P21802, sequence (whole entry, looked up): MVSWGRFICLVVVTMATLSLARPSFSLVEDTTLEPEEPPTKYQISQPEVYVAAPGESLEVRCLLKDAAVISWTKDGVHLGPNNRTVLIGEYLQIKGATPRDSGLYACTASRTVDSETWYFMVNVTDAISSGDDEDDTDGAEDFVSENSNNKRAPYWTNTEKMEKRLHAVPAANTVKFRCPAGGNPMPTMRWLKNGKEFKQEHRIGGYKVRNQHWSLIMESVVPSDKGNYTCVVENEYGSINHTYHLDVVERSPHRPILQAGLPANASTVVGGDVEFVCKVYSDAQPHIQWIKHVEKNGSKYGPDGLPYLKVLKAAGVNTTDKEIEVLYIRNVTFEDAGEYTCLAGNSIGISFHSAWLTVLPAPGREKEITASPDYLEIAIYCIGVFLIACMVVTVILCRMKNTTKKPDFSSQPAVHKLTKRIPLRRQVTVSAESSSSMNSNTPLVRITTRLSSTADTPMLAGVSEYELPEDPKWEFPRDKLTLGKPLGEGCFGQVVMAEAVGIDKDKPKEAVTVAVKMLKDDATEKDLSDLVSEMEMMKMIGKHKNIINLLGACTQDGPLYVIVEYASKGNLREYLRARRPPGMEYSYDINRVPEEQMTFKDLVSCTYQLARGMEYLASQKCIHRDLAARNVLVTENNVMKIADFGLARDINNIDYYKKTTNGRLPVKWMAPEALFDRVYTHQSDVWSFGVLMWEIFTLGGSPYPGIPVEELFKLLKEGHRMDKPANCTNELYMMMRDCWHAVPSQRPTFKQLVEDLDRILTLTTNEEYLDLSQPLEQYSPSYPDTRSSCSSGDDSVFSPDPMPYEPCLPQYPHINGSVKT
UniProt P51812, sequence (whole entry, looked up): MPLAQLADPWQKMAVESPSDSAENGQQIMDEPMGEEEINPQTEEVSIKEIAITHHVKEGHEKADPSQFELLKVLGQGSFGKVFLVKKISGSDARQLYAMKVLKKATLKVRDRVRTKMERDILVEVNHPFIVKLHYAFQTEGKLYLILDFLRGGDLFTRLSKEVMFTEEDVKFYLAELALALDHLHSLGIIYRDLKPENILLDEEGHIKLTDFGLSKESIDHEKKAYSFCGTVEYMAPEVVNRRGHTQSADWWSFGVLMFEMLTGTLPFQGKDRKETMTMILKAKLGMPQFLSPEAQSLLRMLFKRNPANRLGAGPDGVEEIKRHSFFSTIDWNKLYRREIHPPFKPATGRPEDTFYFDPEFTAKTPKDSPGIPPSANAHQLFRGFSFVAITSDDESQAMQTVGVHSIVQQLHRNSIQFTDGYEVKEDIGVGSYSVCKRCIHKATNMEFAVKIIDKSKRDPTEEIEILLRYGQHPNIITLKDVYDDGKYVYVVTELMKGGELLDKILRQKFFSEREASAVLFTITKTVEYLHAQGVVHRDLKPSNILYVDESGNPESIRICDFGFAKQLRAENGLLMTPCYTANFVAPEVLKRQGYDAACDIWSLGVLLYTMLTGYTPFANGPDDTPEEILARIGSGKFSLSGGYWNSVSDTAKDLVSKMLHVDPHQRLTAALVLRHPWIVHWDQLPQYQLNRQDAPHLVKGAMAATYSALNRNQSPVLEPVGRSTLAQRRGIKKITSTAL

Structure (SMILES) = Nc1ncnc2c1ncn2CCOCP(=O)(O)OP(=O)(O)C(F)(F)P(=O)(O)O; target = Gag-Pol polyprotein, reverse transcriptase (gag-pol, Human immunodeficiency virus 1, UniProt P03366); assay = reverse transcriptase activity, inhibitor; IC50 = 403 ± 75.5 µM
Structure (SMILES) = CCN(c1nc(N[C@H](CC(N)=O)C(=O)NC)nc(N2CCN(c3ccccc3C#N)CC2)n1)C1CCCCC1; target = Slit homolog 2 protein, with SLIT2 (SLIT2, Homo sapiens, UniProt O94813); assay = inhibitor, TR-FRET; IC50 = 68.8 ± 12.5 µM
Structure (SMILES) = C[C@@H](c1ccn(Cc2ccc(Cl)cc2Cl)n1)[C@](O)(Cn1cnnn1)c1ccc(F)cc1F; target = Cytochrome P450 2C9 (CYP2C9, Homo sapiens, UniProt P11712); assay = enzyme activity, inhibitor; system = human, liver microsomes; IC50 = 3.07 µM
Structure (SMILES) = C=C(NC(=O)C(=C)NC(=O)c1csc(C2=NC3c4csc(n4)C4NC(=O)c5csc(n5)C(C(C)(O)C(C)O)NC(=O)C5CSC(=N5)C(=CC)NC(=O)C(C(C)O)NC(=O)c5csc(n5)C3(CC2)NC(=O)CNC(=O)C(=C)NC(=O)C(C)NC(=O)C(C(C)CC)NC2C=Cc3c(C(C)O)cc(nc3C2O)C(=O)OC4C)n1)C(N)=O (stereo not drawn); target = Proteasome subunit beta type-7, in 20S proteasome (PSMB7, Homo sapiens, UniProt Q99436); assay = trypsin-like activity, inhibitor; system = purified 20S proteasome; setting = 15 min preincubation, 37 °C, with: Boc-Leu-Arg-Arg-AMC substrate; IC50 = 0.41 ± 0.05 µM
Structure (SMILES) = COc1ccc(C(=O)/C=C(\O)C(F)(F)C(F)(F)F)c(O)c1; target = formate-nitrite transporter (Plasmodium berghei, UniProt A0A509AFP9); assay = L-lactate transport, inhibitor; system = yeast; setting = pH 6.8, with: 14C-L-lactate 1 mM; IC50 = 0.32 ± 0.03 µM
Structure (SMILES) = C=CC(=O)Nc1ccc(-c2c(-c3ccc(Oc4ccccc4)cc3)c3c(N)ncnc3n2C)cc1; target = FGFR2 (Homo sapiens, UniProt P21802); assay = Caliper mobility shift; setting = 30 min preincubation, with: 100 µM ATP; IC50 = 0.006 µM
Structure (SMILES) = COc1cc(-c2nc3ccc(C(=O)NCCCN4CCN(c5ccccc5)C(=O)C4)cc3n2C2CCC2)cc(OC)c1OC; target = ACVR1 (Homo sapiens, UniProt Q04771, R206H); assay = binding, NanoBRET; system = HEK293; IC50 = 2.27 µM
Structure (SMILES) = CC1CN(c2ncnc3[nH]cnc23)CC(C)O1 (stereo not drawn); target = Sensor histidine protein kinase/phosphatase WalK (walK, Streptococcus pneumoniae, UniProt Q8DPL8); assay = enzyme activity, ATP-competitive inhibitor; IC50 = 1190 µM
Structure (SMILES) = COc1cc(OC)c(C(=O)CCc2ccccc2)c(O)c1O; target = DPP4 (Sus scrofa, UniProt P22411); assay = enzyme activity, inhibitor, absorbance; IC50 = > 165 µM
Structure (SMILES) = COc1cc(OC)c2c(c1)C(=O)c1cc3oc(=O)cc(C)c3c(O)c1C2=O; target = mushroom tyrosinase; assay = enzyme activity; setting = with: L-DOPA; IC50 = 59.95 ± 0.46 µg/mL
Structure (SMILES) = CC1OC(Oc2c(-c3ccc(O)cc3)oc3cc(O)cc(O)c3c2=O)C(OC(=O)C=Cc2ccc(O)cc2)C(O)C1OC(=O)C=Cc1ccc(O)cc1 (stereo not drawn); target = CXCR1 (Homo sapiens, UniProt P25024); assay = calcium flux, antagonist; system = 293FT GCaMP6 transfected; IC50 = > 1 µM
Structure (SMILES) = COc1cccc(/C=C/C(=O)c2cccc3ccccc23)c1OC; target = Seed linoleate 13S-lipoxygenase-1 (Glycine max, UniProt P08170); assay = enzyme activity, inhibitor, absorbance; IC50 = 92.3 µM
Structure (SMILES) = N#C/C(=C\c1cccc(-c2ccncc2)c1)C(N)=O; target = Ribosomal protein S6 kinase alpha-3, C-terminal kinase domain (RPS6KA3, Homo sapiens, UniProt P51812); assay = enzyme activity, inhibitor; setting = 10 mM reduced glutathione, with: 0.1 mM ATP, peptide substrate; IC50 = 1.1 µM
Structure (SMILES) = CNC(=O)C1CCN(c2cc(C)c(F)cc2NC(=O)c2ccc(-c3cc(O)ccc3C)c(C)c2)CC1; target = EPHA4 (Homo sapiens, UniProt P54764); assay = target engagement in cells, BRET; IC50 = 0.04 µM and 0.0396 µM
Structure (SMILES) = O=C(c1cc([N+](=O)[O-])ccc1Cl)N1CCN(c2cccc(Cl)c2)CC1; target = SEC14 (Saccharomyces cerevisiae, UniProt P24280); assay = enzyme activity, inhibitor, radiometric; IC50 = > 100 µM
Structure (SMILES) = CCCc1nn(-c2ccccc2)c(O)c1-c1nc2ccccc2[nH]c1=O; target = JAK2 (Homo sapiens, UniProt O60674); assay = enzyme activity, inhibitor, ADP detection; IC50 = 0.0285 µM
Structure (SMILES) = COc1ccc(Br)c(-c2nnc3n2N=C(C(C)C)CS3)c1; target = PDE4B (Homo sapiens, UniProt Q07343); assay = enzyme activity, inhibitor, luciferase; IC50 = 7.5 µM
Structure (SMILES) = NS(=O)(=O)c1ccc(-n2cc(CNc3ccccc3Cl)c(-c3ccc(OCc4ccccc4)cc3)n2)cc1; target = PTGS1 (Homo sapiens, UniProt P23219); assay = enzyme activity, inhibitor, absorbance; IC50 = 183 µM
Structure (SMILES) = CC(C)C[C@@H](NC(=O)[C@@H](Cc1ccccc1)NC(=O)[C@H]1CCCN1C(=O)[C@@H](CCC(N)=O)NC(=O)[C@H](NC(=O)[C@H]1CCCN1C(=O)[C@@H](CCCNC(=N)N)NC(=O)[C@@H](CO)NC(=O)[C@@H](CCC(N)=O)NC(=O)[C@@H](CC(=O)O)NC(=O)[C@H](N)[C@H](C)O)C(C)C)C(=O)N[C@H](CC(N)=O)C(=O)N[C@H](CC(C)C)C(=O)N[C@@H](C(=O)N[C@@H](C(=O)N1CCC[C@@H]1C(=O)N[C@H](CCCNC(=N)N)C(=O)N[C@H](CCCCN)C(=O)N1CCC[C@@H]1C(=O)N[C@H](CCCNC(=N)N)C(N)=O)[C@H](C)O)[C@H](C)O; target = Mapk14 (Mus musculus, UniProt P47811); assay = enzyme activity, inhibitor, radiometric; setting = pH 7.5; IC50 = 1400 µM
Structure (SMILES) = N#Cc1ccc(-c2ccc(C=NOCc3ccc(-c4nc5cc(-c6ccccc6)ccn5c4Nc4ccc(C(=O)O)cc4)cc3)cc2)nc1; target = TDP1 (Homo sapiens, UniProt Q9NUW8); assay = enzyme activity, inhibitor, HPLC; IC50 = 0.38 µM
Structure (SMILES) = CC(C)n1cnc(C[C@H](NC(=O)C2CCCCN2)C(=O)N2CCC[C@H]2C(N)=O)c1 (stereo partly drawn); target = Thyrotropin-releasing hormone receptor (Mus musculus, UniProt P21761); assay = ligand displacement, radioligand; IC50 = > 50 µM
Structure (SMILES) = C#CCO[C@H](C(=O)O)[C@H](N)C(=O)O (racemic); target = SLC1A3 (Homo sapiens, UniProt P43003); assay = transporter uptake, inhibitor, radiometric; IC50 = 6.9 µM
Structure (SMILES) = CC(=O)NCCN(CC(=O)NCCN(CC(=O)NCCN(CC(=O)NCCC(N)=O)C(=O)C[C@@H](N)Cc1ccccc1)C(=O)C[C@@H](N)Cc1ccccc1)C(=O)C[C@@H](N)CCCNC(=N)N; target = HIV-1 TAR RNA; assay = Tat/TAR complex displacement, FRET; setting = room temperature, with: 10 nM Tat/TAR complex; IC50 = 22.8 ± 0.8 µM
Structure (SMILES) = CCCCCC[N+](CCCCCC)(CCCCCC)CCCCCC; target = Kcnk2 (Rattus norvegicus, UniProt Q920B6); assay = ion current, inhibitor; setting = pH 5, oocytes; IC50 = 1 µM
Structure (SMILES) = COc1cc(/C=C2/SC(=S)N(CC(=O)Nc3ccccn3)C2=O)cc(OC)c1OC; target = CD38 (Homo sapiens, UniProt P28907); assay = enzyme activity, inhibitor, fluorescence; IC50 = 16.6 µM
Structure (SMILES) = CC[C@H](C)[C@H](NC(=O)CNC(=O)[C@H](CC(=O)O)NC(=O)[C@H](CO)NC(=O)C=Cc1c[nH]cn1)C(=O)N[C@@H](Cc1ccccc1)C(=O)N[C@H](C(=O)N[C@@H](CC(=O)O)C(=O)N[C@@H](CO)C(=O)N[C@@H](Cc1ccc(O)cc1)C(=O)N[C@@H](CO)C(=O)N[C@@H](CCCNC(=N)N)C(=O)N[C@@H](Cc1ccc(O)cc1)C(=O)N[C@@H](CCCNC(=N)N)C(=O)N[C@@H](CCCCN)C(=O)N[C@@H](CCC(N)=O)C(=O)N[C@@H](CCSC)C(=O)N[C@@H](C)C(=O)N[C@H](C(=O)N[C@@H](CCCCN)C(=O)N[C@@H](CCCCN)C(=O)N[C@@H](C)C(=O)N[C@@H](CC(C)C)C(=O)N[C@@H](C)C(=O)N[C@@H](C)C(=O)N[C@H](C(=O)N[C@@H](CC(C)C)C(=O)NCC(=O)N[C@@H](CCCCN)C(=O)N[C@@H](CCCNC(=N)N)C(=O)N[C@@H](Cc1ccc(O)cc1)C(=O)N[C@@H](CCCCN)C(=O)N[C@@H](CCC(N)=O)C(=O)N[C@@H](CCCNC(=N)N)C(=O)N[C@H](C(=O)N[C@@H](CCCCN)C(=O)N[C@@H](CC(N)=O)C(=O)N[C@@H](CCCCN)C(N)=O)C(C)C)C(C)C)C(C)C)[C@@H](C)O; target = ADCYAP1R1 (Homo sapiens, UniProt P41586); assay = ligand displacement, radioligand; IC50 = 0.00741 µM
Structure (SMILES) = O=C(Nc1ccc(Cl)cc1)c1ccc([N+](=O)[O-])o1; target = Txnrd1 (Rattus norvegicus, UniProt O89049); assay = enzyme activity, inhibitor; IC50 = 10.7 µM
Structure (SMILES) = NC(=O)c1ccc(NC(=O)c2[nH]cnc2C(=O)NC2CCNCC2)cc1; target = PDPK1 (Homo sapiens, UniProt O15530); assay = enzyme activity, inhibitor; IC50 = 1 µM
Structure (SMILES) = CNC(=O)C1CCN(c2cc(C)ccc2NC(=O)c2ccc(-c3cc(O)ccc3C)c(C)c2)CC1; target = EPHB2 (Homo sapiens, UniProt P29323); assay = target engagement in cells, BRET; IC50 = 0.027 µM
Structure (SMILES) = CC(C)n1nc(-c2cc(Br)ccc2F)nc2c(=O)n(C)c(=O)nc1-2; target = TPR (Trypanosoma brucei brucei, UniProt P39051); assay = inhibitor, DTNB-coupled colourimetric; setting = with: substrate at Km; IC50 = > 50 µM

A few entries again:
Structure (SMILES) = Nc1ncnc2c1ncn2CCOCP(=O)(O)OP(=O)(O)C(F)(F)P(=O)(O)O; target = Gag-Pol polyprotein, reverse transcriptase (gag-pol, Human immunodeficiency virus 1, UniProt P03366); assay = reverse transcriptase activity, inhibitor; IC50 = 403 ± 75.5 µM
Structure (SMILES) = CCN(c1nc(N[C@H](CC(N)=O)C(=O)NC)nc(N2CCN(c3ccccc3C#N)CC2)n1)C1CCCCC1; target = Slit homolog 2 protein, with SLIT2 (SLIT2, Homo sapiens, UniProt O94813); assay = inhibitor, TR-FRET; IC50 = 68.8 ± 12.5 µM
Structure (SMILES) = C[C@@H](c1ccn(Cc2ccc(Cl)cc2Cl)n1)[C@](O)(Cn1cnnn1)c1ccc(F)cc1F; target = Cytochrome P450 2C9 (CYP2C9, Homo sapiens, UniProt P11712); assay = enzyme activity, inhibitor; system = human, liver microsomes; IC50 = 3.07 µM
Structure (SMILES) = C=C(NC(=O)C(=C)NC(=O)c1csc(C2=NC3c4csc(n4)C4NC(=O)c5csc(n5)C(C(C)(O)C(C)O)NC(=O)C5CSC(=N5)C(=CC)NC(=O)C(C(C)O)NC(=O)c5csc(n5)C3(CC2)NC(=O)CNC(=O)C(=C)NC(=O)C(C)NC(=O)C(C(C)CC)NC2C=Cc3c(C(C)O)cc(nc3C2O)C(=O)OC4C)n1)C(N)=O (stereo not drawn); target = Proteasome subunit beta type-7, in 20S proteasome (PSMB7, Homo sapiens, UniProt Q99436); assay = trypsin-like activity, inhibitor; system = purified 20S proteasome; setting = 15 min preincubation, 37 °C, with: Boc-Leu-Arg-Arg-AMC substrate; IC50 = 0.41 ± 0.05 µM
Structure (SMILES) = COc1ccc(C(=O)/C=C(\O)C(F)(F)C(F)(F)F)c(O)c1; target = formate-nitrite transporter (Plasmodium berghei, UniProt A0A509AFP9); assay = L-lactate transport, inhibitor; system = yeast; setting = pH 6.8, with: 14C-L-lactate 1 mM; IC50 = 0.32 ± 0.03 µM
